Assay results of several laboratories.
Each numbered part is a random draw from the data of one study; scales do not carry over between parts.

Block 1
Target: Hepatocyte nuclear factor 3-alpha (Foxa1, Mus musculus, UniProt P35582, residues 1-468, full length assumed)
Technique: EMSA with sequencing
Form: double-stranded DNA, one strand shown
Matrix: in vitro
Concentration: 10 and 20 nM
Notes: whole designed probe, mean of two concentrations, ends assumed
Reference: negative control set to 0
Direction: higher = stronger binding
Shared flanks, not repeated: GTGAGCGGTGCCCATTGATGGGGAAC … TTTCACTGGGATCGTGGGGAC
Construct (chain): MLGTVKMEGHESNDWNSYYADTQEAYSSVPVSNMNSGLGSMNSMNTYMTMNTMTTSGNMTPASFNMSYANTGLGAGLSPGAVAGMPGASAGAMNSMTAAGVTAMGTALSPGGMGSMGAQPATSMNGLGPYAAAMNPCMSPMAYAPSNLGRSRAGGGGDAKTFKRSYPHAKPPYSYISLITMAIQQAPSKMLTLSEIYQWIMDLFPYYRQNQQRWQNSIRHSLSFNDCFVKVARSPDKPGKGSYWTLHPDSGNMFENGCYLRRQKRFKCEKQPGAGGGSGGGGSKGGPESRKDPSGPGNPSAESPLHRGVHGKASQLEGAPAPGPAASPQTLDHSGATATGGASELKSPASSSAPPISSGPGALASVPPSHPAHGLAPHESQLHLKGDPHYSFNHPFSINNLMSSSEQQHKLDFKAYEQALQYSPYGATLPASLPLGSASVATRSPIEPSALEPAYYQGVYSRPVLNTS
Sequence | normalised bound fraction [ratio]
TGAAATCTCTCTTTATAAGTCACTCATAAACATGACTGCAGTCATATGCCTCACAGTTACTGTACTTTAATCTGCACTTGCTTCCTCCTACGTATTTACTTAAAGAGTCACAGCTTGCTGGAAATGTATCCTTCCTACTGTTGCTCTGTGTGTCTCCAACGGGGGGATTGGATCCTTGTATGTTTTTTTAACC | 0.334
GGACACAGCCAGAGGCCATGAGTGCTCAGGAGTGCCATAAACTGTGATTTTGAGACTGATAAGGCCAGGCTAAATAGCCTGGGTGTGTCTTGTTGTTTGCCTTTTTATATTTGAGGCCTATAAAAAAATAGTGAGAAAATAGCAAGATGCCCAGGAGACAGGTGATCTGATTCAGCCAGGGGGTGGGAGGTGG | 0.0714
CCAGGTATTATCAGAGGGAGACAGGCAGGGAGCTCCCCAGTGAAGGCTCTAGAGCATCCCATAAAAGGATGAAGAGAGAGACAATCCACAAATGCAAATATCTATTCAATTTTCATTCTATTATAGTTATATTCATAGTTAATACTGTATGAAAATGTTTATTATAGAGTCACCTGCAAGAGCAAAAATAAGA | 0.167
ATCTTCCCCCTCTTCCTTGCCCCACCAGCTCACCTACGGGGGTTATTTGCAGATAGGAAAATAAATAAAGCCGGCATTCGTTAACGCAGTTCACGCGCATACTGCTGTTTGCTCTGGATGAATCATGGTCCTTTGGCGACGCCAGGCTCCGGGAGAGCAAAGCACCGTGTCAGGGCCATGATCCGGGGTGGCC | 0.351
ATCTTCCCCCTCTTCCTTGCCCCACCAGCTCACCTTCCCGGGTTATTTGCAGATAGGAAAATAAATAAAGCCGGCATTCGTTAACCCTCTTCTGGCGCAAACTGCTGTTTGCTCTGGATGAATCATGGTCCTTTGGCGACGCCAGGCTCCGGGAGAGCAAAGCACCGTGTCGCATGACGAGTCCGGGGTGGCC | 0.342

Block 2
Target: Interferon regulatory factor 7, full length, phosphomimetic (IRF7, Homo sapiens, UniProt Q92985, residues 1-503, S101K/S471D/S472D/S475D/S476D/S477D/S483D/S484D/S487D)
Chain of UniProt Q92985 (whole entry, unmodified, looked up): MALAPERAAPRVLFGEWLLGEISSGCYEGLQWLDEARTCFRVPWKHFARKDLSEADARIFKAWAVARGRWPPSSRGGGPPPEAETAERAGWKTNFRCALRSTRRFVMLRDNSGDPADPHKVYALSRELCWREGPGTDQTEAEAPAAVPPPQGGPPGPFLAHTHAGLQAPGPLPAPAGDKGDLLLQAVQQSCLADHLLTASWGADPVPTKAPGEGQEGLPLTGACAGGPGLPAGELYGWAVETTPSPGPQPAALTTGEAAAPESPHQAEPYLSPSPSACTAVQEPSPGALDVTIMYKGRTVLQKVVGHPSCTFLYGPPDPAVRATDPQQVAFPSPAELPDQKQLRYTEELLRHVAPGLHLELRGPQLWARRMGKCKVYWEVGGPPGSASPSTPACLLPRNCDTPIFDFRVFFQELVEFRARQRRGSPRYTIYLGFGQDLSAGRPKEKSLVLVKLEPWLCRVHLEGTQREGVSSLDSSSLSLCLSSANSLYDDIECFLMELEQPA
Technique: protein-binding microarray
Form: double-stranded DNA, one strand shown
Matrix: in vitro
Concentration: 250 nM
Notes: 60-bp whole probe
With: salmon DNA 0.4 mg/ml
Reference: random background probes
Direction: higher = stronger binding
Shared flanks, not repeated: GCCTAGCAC … GTCTTGATTCGCTTGACGCTGCTG
Sequence | log fluorescence
TCAACATTGTGCAATCTTACTGTGCTA | -0.0242 z-score
TTAGGTTGCGACTATCGGTTAGTGCTA | -0.212 z-score
GACGGTTTCCTTTTCCTTACGTGCTAG | 7.02 z-score
TTAGGACTGCTTTGCCTTTAGTGCTAG | 1.25 z-score
GGTCTTTTCGCTTTCTTTACGTGCTAG | 4.39 z-score
GAGGGTTTCGACTATCGGGACGTGCTA | 3.59 z-score
GACGATTTCAGACTGGAGAGGTGCTAG | -0.142 z-score
GACGATATCGGGTTTCGAAACGTGCTA | 4.84 z-score
TCAATTCGTCATTTCACACTGTGCTAG | 0.823 z-score
GACGACCTCAGTTTCGAGACGTGCTAG | 3.98 z-score
GACGGTAGCCTTTTCCTGACGTGCTAG | -0.234 z-score
GGCGGTTTCCTTCTCCTGACGTGCTAG | 2.04 z-score
TTAGGTTTCGGACTGGGTTCGTGCTAG | 3.71 z-score
GACGGTATCGGTCTCTGGACGTGCTAG | 0.615 z-score
TTAGGAATGGGGTTTCGGTTAGTGCTA | 5.9 z-score
GACGGTATCGGGTTTCGTGACGTGCTA | 2.45 z-score
TTAGGTATCGAATATCGGTTAGTGCTA | 0.213 z-score
TATTATTTGCCTTGCATTTTGTGCTAG | 0.46 z-score
CTTTCTTTTATGCTCTTTCTGTGCTAG | 1.67 z-score

Block 3
Target: RNA binding protein fox-1 homolog 2, RRM domain, GST-SBP tag (RBFOX2, Homo sapiens, UniProt O43251-10, residues 100-194)
Technique: RNA Bind-n-Seq
Form: RNA
Matrix: in vitro
Concentration: 365 nM
Notes: natural RNA segment, single round, ends assumed
Reference: no-protein control
Direction: higher = stronger binding
Shared flanks, not repeated: GGGAGUUCUACAGUCCGACGAUC … UGGAAUUCUCGGGUGCCAA
Target sequence (chain): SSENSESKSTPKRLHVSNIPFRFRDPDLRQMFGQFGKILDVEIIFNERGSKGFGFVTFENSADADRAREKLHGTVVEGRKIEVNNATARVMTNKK
Sequence | RBNS enrichment (R)
GGCCCCACGCACCCCAGAACACACAGACCCACCUUUCUGGCGUUCUUUCUACCUCCCUUUUCGUUGCCUGAGGAGCUGGUGGUUUCAUGAGUUAAUGAUACAUCUUGCAA | 0.679
ACAAAAAAAUGCUACUCCUAGUUCAGAUGUUGUGCCCUUCAUUUCUAAAGCCGAUGUUUUGCCCUCUUUGGAAAGACUGAGAACUGUGGCCUGAUUUCGUCCAUAUUCUA | 0.442
AGAGCUGCAGUUAGACGGGGUUACGGGGGCUAAAAGCAGAAAAAAAAUUCCAUUUCAUCGGGAUGGAACUGAAGGAUUUUAUUCUAUAAAGCGGCCCUGGUUGAAUCUGG | 0.719
AGUCUUUGAAAUAUGGAAAAUCAGCAGUCUAAAGUUUGUUUUAAAUUCUAAAUUUAAAAAAUCUUCAAAUCUGAAUAUACCGCAAAUGUCAUGAGAAGUUUGAUUCAGUA | 0.426
UUUUAUGUUUACAGGGCACGUCUGUUGUAAUGCAAAGCAUAUUUGGCAAGCAGUUCAUCACCAGGACACUAGCUAUGAUUCUAGAAGUCAAAAGGUGUCUAUAGAACUAG | 0.378
UGCCCAUGCUGUCUACUGUGCCUCCUUAUGAGGGCAUCAUGUUGGUCUCUGUUGUGCUUACUGCAGGCUGUAAUGGCACUUUUGCUUGUUUCACUUGUUCCCUCUGAGGC | 0.875
GCCACCCACCCAUCAUAUUUGAUUCUGUGGGAGUGGGCACCCAUACACCUGUGUAUGUGAAAGUCAUUUUACAUUUCCAAGCAGUCUGUUUCUUAUUUUUAUAUUUUAAC | 0.338
GUGGAGAAAGGCAAGAUUGAAGACACUGGAGGCAGUGGCGGCUCCUAUUCCAUCAAAACCCAGUUUAACUCGGAGGAGCAGUGGACAAAAGCGCUCAAGUUCAUGCUGAC | 0.515

Block 4
Target: Histone acetyltransferase KAT6A, winged helix 1, GST fusion (KAT6A, Homo sapiens, UniProt Q92794, residues 1-85)
Technique: protein binding microarray
Form: double-stranded DNA, one strand shown
Matrix: in vitro
Concentration: not given
Notes: 8-mer, flanks averaged, mean of 2 arrays, mostly near background
Reference: not given
Direction: higher = stronger binding
Construct (chain): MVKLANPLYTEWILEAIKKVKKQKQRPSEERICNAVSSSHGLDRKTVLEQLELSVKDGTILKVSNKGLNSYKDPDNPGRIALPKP
Sequence | E-score
AAAGTATA | -0.134
CGCCAGCG | 0.333
ATGCTAGC | 0.0233
ATGCGTGA | 0.0905
AATGTAGA | -0.15
AACAAACC | -0.0173
TGTACAAA | -0.221
GTGCAAAC | 0.0617
AGTCGTCC | -0.0567
GACCAGGA | -0.28
AAACTCAA | -0.152
AACAGTTG | -0.182
GCATTGCC | 0.14
GACACGAA | -0.0964
GAGGGGAC | -0.115
ACAATTGT | -0.126
GAGTAAAC | -0.0288
AAAAGGGT | -0.112
CCGTTCGC | 0.272
ACACATTC | -0.0954
CGTTAATC | 0.166
AACTTCAA | -0.129
ACCGCGGG | 0.443
CAGCATGC | 0.00436
ATCTTACA | -0.165
